Experimental data collected from several papers.
Values joined by “and” are separate records of one study, mostly repeats; a detail may differ. ± gives the spread as reported.
ulaR full length assumed: ulaR full length assumed (Escherichia coli, UniProt P0A9W0)
Chain of UniProt P0A9W0 (whole entry, looked up): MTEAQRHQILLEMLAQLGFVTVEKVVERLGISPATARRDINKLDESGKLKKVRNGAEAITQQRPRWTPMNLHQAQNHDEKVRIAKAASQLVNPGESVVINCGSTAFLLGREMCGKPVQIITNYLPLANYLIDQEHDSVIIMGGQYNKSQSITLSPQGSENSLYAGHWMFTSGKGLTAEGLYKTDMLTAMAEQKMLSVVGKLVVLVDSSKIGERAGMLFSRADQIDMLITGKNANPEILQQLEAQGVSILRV
U2AF2: U2AF2 148-342 (Homo sapiens, UniProt P26368)
Chain of UniProt P26368 (whole entry, looked up): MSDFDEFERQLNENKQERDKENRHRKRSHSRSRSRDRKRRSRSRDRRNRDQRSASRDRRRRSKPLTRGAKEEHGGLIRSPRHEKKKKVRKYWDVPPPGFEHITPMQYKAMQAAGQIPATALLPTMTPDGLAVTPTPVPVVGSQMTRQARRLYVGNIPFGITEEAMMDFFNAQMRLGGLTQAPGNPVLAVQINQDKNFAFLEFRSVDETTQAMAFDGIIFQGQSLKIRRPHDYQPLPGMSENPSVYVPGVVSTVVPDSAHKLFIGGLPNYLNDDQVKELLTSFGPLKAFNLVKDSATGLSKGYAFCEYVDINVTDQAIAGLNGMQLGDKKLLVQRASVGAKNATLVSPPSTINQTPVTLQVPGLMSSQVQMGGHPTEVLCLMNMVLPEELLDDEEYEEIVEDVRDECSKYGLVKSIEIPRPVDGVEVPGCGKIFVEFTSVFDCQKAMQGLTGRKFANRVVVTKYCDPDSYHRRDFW
PHO4: PHO4 1-312 (Saccharomyces cerevisiae, UniProt P07270)
Chain of UniProt P07270 (whole entry, looked up): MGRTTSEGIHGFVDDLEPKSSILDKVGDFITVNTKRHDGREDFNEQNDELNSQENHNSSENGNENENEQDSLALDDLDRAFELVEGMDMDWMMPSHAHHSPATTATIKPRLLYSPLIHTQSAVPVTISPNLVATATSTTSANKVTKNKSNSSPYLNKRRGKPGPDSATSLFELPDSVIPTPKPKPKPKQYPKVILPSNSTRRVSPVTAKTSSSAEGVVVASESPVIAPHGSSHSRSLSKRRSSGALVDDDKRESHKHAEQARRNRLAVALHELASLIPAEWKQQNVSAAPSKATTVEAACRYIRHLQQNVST
PHO4 full length assumed: PHO4 full length assumed (Saccharomyces cerevisiae, UniProt P07270)
TGM2: TGM2 2-687 (Homo sapiens, UniProt P21980)
Chain of UniProt P21980 (whole entry, looked up): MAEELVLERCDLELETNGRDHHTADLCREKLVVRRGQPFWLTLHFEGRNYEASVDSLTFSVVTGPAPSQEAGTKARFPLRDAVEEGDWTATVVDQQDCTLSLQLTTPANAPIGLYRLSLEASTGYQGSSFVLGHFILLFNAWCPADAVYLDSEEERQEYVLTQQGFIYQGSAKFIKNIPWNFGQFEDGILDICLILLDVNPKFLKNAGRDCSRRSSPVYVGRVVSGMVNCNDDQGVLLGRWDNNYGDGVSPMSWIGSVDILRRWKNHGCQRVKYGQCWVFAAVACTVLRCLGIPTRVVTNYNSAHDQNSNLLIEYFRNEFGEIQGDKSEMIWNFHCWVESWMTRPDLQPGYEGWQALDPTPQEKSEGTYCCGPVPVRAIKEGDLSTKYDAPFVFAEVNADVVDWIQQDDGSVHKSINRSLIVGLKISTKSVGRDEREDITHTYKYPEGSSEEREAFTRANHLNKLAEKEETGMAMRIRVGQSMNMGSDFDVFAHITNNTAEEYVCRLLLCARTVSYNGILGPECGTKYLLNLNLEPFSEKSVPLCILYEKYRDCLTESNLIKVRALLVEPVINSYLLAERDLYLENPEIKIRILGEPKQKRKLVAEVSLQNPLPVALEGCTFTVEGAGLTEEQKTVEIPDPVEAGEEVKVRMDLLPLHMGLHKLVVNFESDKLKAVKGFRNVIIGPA
glnG full length assumed: glnG full length assumed (Escherichia coli, UniProt P0AFB8)
Chain of UniProt P0AFB8 (whole entry, looked up): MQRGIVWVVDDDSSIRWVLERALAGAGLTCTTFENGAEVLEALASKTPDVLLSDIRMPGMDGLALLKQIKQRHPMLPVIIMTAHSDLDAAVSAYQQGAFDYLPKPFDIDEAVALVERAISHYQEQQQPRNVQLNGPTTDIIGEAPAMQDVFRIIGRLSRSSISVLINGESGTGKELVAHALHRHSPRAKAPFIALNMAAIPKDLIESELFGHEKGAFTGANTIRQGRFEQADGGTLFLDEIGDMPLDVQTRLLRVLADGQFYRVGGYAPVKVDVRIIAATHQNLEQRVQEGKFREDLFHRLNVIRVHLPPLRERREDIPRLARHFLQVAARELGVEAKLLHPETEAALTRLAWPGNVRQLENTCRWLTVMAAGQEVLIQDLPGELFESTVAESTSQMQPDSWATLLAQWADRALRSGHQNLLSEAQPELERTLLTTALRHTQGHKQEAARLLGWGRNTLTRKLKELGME
CBF1: CBF1 1-351 (Saccharomyces cerevisiae, UniProt P17106)
Chain of UniProt P17106 (whole entry, looked up): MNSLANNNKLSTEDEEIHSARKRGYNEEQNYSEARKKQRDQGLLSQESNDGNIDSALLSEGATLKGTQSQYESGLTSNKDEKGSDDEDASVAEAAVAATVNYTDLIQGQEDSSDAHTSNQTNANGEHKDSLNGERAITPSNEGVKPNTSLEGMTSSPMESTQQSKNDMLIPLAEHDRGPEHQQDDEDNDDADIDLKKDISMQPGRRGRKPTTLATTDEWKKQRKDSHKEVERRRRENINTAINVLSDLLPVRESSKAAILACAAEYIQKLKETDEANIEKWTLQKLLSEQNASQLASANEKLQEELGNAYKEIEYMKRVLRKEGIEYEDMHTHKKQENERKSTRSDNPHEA
SPT15 full length assumed: SPT15 full length assumed (Saccharomyces cerevisiae, UniProt P13393)
Chain of UniProt P13393 (whole entry, looked up): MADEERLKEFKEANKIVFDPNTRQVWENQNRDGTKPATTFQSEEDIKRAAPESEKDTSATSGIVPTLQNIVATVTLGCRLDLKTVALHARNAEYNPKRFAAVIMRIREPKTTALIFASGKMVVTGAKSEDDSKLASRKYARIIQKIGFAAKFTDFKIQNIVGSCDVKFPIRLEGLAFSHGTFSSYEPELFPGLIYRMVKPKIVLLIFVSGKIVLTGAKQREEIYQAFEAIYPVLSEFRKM
nac full length assumed: nac full length assumed (Escherichia coli, UniProt Q47005)
Chain of UniProt Q47005 (whole entry, looked up): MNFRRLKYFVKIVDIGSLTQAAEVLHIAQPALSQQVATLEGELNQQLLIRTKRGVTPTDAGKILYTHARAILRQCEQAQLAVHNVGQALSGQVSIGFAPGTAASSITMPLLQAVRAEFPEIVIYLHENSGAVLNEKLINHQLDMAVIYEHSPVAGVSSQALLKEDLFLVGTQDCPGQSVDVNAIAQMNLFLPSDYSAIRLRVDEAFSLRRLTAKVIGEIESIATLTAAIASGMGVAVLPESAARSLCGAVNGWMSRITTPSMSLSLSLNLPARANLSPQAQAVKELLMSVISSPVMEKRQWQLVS
PARP1: PARP1 1-1014 (Homo sapiens, UniProt P09874)
Chain of UniProt P09874 (whole entry, looked up): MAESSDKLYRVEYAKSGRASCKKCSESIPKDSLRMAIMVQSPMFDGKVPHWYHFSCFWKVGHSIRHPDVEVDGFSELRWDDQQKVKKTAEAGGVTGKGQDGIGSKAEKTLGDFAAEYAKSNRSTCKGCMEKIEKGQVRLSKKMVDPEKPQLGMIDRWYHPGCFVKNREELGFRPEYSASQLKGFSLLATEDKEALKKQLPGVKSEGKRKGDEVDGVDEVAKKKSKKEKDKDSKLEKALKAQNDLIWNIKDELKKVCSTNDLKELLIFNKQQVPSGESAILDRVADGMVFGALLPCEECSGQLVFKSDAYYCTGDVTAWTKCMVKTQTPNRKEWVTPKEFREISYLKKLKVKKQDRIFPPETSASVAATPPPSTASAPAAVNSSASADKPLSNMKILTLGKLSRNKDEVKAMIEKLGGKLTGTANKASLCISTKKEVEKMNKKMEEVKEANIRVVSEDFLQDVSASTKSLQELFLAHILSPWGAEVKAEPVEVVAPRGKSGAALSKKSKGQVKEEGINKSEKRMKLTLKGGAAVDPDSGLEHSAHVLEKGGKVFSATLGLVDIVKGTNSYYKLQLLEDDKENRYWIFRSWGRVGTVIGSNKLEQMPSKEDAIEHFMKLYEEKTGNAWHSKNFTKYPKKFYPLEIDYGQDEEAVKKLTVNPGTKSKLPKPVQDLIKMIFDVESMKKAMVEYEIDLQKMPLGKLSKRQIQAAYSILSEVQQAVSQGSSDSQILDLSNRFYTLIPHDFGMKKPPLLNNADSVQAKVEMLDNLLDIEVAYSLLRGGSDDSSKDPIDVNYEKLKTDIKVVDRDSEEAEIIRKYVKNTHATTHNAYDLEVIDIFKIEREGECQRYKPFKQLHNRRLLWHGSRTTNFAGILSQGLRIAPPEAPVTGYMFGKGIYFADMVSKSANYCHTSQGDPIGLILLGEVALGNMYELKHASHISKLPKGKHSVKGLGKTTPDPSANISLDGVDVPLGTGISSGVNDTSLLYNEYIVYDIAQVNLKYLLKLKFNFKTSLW
T1: MUTYH 1-535 (Homo sapiens); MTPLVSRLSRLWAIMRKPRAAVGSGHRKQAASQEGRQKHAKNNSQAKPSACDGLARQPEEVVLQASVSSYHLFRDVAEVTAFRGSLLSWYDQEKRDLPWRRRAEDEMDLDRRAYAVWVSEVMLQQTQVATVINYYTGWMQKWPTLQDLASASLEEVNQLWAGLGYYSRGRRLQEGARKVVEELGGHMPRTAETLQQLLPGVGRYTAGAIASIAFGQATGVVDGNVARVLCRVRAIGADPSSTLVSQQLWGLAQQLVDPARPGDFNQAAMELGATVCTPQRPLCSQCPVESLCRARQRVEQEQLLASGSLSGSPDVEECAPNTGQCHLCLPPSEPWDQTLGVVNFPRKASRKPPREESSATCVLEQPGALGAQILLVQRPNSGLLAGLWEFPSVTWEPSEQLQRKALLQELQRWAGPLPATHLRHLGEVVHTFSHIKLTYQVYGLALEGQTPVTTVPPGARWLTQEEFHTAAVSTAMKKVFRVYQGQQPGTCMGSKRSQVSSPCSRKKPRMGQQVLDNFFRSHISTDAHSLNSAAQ
Chain of UniProt Q07955 (whole entry, looked up): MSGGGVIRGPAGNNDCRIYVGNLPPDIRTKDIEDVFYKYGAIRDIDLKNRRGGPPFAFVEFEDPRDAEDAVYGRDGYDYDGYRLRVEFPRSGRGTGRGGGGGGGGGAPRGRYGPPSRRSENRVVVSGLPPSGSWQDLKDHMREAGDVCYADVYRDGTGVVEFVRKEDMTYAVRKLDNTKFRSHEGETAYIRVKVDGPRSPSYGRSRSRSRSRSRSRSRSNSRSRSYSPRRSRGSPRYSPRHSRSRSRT
Chain of UniProt P07676 (whole entry, unmodified, looked up): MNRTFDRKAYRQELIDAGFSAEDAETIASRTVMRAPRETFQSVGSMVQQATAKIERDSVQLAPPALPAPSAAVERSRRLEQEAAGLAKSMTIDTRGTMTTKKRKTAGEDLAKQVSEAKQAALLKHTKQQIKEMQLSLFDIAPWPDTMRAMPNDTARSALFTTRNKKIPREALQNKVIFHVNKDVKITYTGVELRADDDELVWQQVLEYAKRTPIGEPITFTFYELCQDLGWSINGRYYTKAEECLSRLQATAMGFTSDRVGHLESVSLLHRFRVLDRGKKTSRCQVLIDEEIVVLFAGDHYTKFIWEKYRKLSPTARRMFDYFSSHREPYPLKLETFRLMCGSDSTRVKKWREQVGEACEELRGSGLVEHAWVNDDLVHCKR

Sequence	target	test	test system	setting	scale	endpoint	value
CGCGTCGACGTGTCTACGTGTGCACGTGTGGACGTGTGTACGTGTTCACGTGTTGCTCCGGCGGTATGAC (dsDNA)	CBF1 full length assumed (Saccharomyces cerevisiae, UniProt P17106)	MITOMI	double-stranded DNA, one strand shown	not purified		Kd	33 ± 3 nM
ATGGCGGGCTATGATCCTAT (dsDNA; blunt, N2-nBu-dG at position 7)	SUB1 full length assumed (Homo sapiens, UniProt P53999)	fluorescence anisotropy	double-stranded DNA, one strand shown			Kd	1.3 ± 0.5 nM
GGTAACTTAGCGTCTCGTTGTGATTAAGTTTGACGAGGAATGGAATGCGATGCGCATAACG (dsDNA)	ulaR full length assumed	BLI	double-stranded DNA, one strand shown			Kd	18.4 nM
CUUCUCCAU (ssRNA)	U2AF2	sequencing of bound RNA	RNA	motif only		Kd	9080 nM
CAATACACTGTTATCAGACACACGTGTCGGGCTACTCGTTCGGTTATCCGGCGGTATGAC (dsDNA)	PHO4	MITOMI	double-stranded DNA, one strand shown	not purified		Kd	138 ± 4 nM
CUGACGGAAGUACGUGGAAAGCCGAAAGUGUGUCCCGGUCAG (L-RNA; L-ribonucleotides; 5' DBCO-succinate-aminohexyl)	CXCL8 fragment (Homo sapiens)	SPR				Kd	0.22 nM and 0.087 nM
CGCGCGACCACGCTACCACGGCACCACGGGACCACGGTACCACGTCACCACGTGACTCCGGCGGTATGAC (dsDNA)	PHO4 full length assumed	MITOMI	double-stranded DNA, one strand shown	not purified		Kd	45 ± 7 nM
ACAUUCAUG (ssRNA)	U2AF2	sequencing of bound RNA	RNA	motif only		Kd	14000 nM
AUCAUGUUGCCAUUU (ssRNA)	fbf-1 162-614 (Caenorhabditis elegans, UniProt Q9N5M6)	EMSA	RNA			Kd	615 nM
UUGAGCUCC (ssRNA)	U2AF2	sequencing of bound RNA	RNA	motif only		Kd	540 nM
UUCAGAGGA (ssRNA)	SRSF1 1-248 (Homo sapiens, UniProt Q07955)	fluorescence polarization	RNA			Kd	38 ± 2 nM
GGGAGCAGGAGAGAGGUCAGAUGUUAGAUAAUUACAAGAGAUGUGGCAUCGGACCUAUGCGUGCUAGUGUGA (ssRNA; 2'-fluoro pyrimidines)	TGM2	SPR	RNA	added: MgCl2 5 mM	higher = more binding	relative binding	-8.2 RU
TTCAATGCTCTGTAGGTGTGCAACAAACCTGGCGTGCACCATGATGATCATTCCATCAGGT (dsDNA)	glnG full length assumed	BLI	double-stranded DNA, one strand shown			Kd	104 nM
CGCTGATCACGTGATGACGTGATTACGTGCAGACGTGCATACGTGCCCACGTGCCCTCCGGCGGTATGAC (dsDNA)	PHO4 full length assumed	MITOMI	double-stranded DNA, one strand shown	not purified		Kd	34 ± 4 nM
ACAGGGGTGTGGGGACAGGGGTGTGGGG (G-quadruplex DNA (Homo sapiens); intramolecular G4)	IGF2 fragment (Homo sapiens)	SPR	folded DNA	added: IGF-2 1-100 pM		Kd	2 nM
CGATCATGGAGCCACGAGCTCCCGTTACAG / CTGTAACGGGAGCTNGTGGCTCCATGATCG (dsDNA; blunt, 8-oxoG opposite N)	T1, MUTYH 1-535 (Homo sapiens)	EMSA				Kd	< 0.05 nM
CAATACACTGTTATCAGACACACGTGTCTAGCTACTCGTTCGGTTATCCGGCGGTATGAC (dsDNA)	CBF1	MITOMI	double-stranded DNA, one strand shown	not purified		Kd	168 ± 8 nM
ATGATTACTAATTCTTAACATTCGAGTTCAATCTCTCAAGTCAATCGGTCC (dsDNA; 5'-amino-C6 primer)	SPT15 full length assumed	array	double-stranded DNA, one strand shown	TBP alone		Kd	2.34 ± 0.17 nM
AGCGTCACAGACATGAAATTGGTAAGACCAATTGACTTCGGCAAGTGGCTTAAGACAGGAA (dsDNA)	nac full length assumed	BLI	double-stranded DNA, one strand shown			Kd	4820 nM
GUAUAGUGU (ssRNA)	U2AF2	sequencing of bound RNA	RNA	motif only		Kd	3520 nM
TTCTGATCACCGACATGAAAGCTAACAGGAACGTTAAGTGCCTTAGCTCCGGCTACCGTGC (dsDNA)	ulaR full length assumed	BLI	double-stranded DNA, one strand shown			Kd	12100 nM
TCCTGAAGGAGCGCCTATAAAAGGTCCTATCGTCGTCAAGTCAATCGGTCC (dsDNA; 5'-amino-C6 primer)	SPT15 full length assumed	array	double-stranded DNA, one strand shown	TBP alone		Kd	3.78 ± 0.38 nM
GUUUCUUUU (ssRNA)	U2AF2	sequencing of bound RNA	RNA	motif only		Kd	330 nM

Sequence	target	test	test system	setting	scale	endpoint	value
GGGAGCAGGAGAGAGGUCAGAUGAACAAUAAAAAUUGUGCAAGCCUUAGGCUCCCUAUGCGUGCUAGUGUGA (ssRNA; 2'-fluoro pyrimidines)	TGM2	SPR	RNA	added: MgCl2 5 mM	higher = more binding	relative binding	-13.4 RU
GAAGA (ssRNA)	SART3 697-786 (Homo sapiens, UniProt Q15020)	ITC	RNA			Kd	2600 ± 500 nM
CAATACACTGTTATCAGACACACGTGACGAGCTACTCGTTCGGTTATCCGGCGGTATGAC (dsDNA)	CBF1	MITOMI	double-stranded DNA, one strand shown	not purified		Kd	30 ± 2 nM
GUCUUGCUC (ssRNA)	U2AF2	sequencing of bound RNA	RNA	motif only		Kd	900 nM
AGAGTGCGACACCTGATTCC / GGAAUCAGGUGUCGCACUCU (DNA:RNA)	S9.6 antibody (Mus musculus)	fluorescence anisotropy		Kd per binding site, no DTT		Kd	84 ± 6 nM
TTTGCGTGGGCTGTGGTGCTTT (ssDNA)	traI 309-858 (Escherichia coli, UniProt P14565)	fluorescence titration	single-stranded DNA			Kd	6.9 ± 1.3 nM
GGUGCCUCCAUCACCUGGUCUUUGUAGACCACCUGAUGGAGGCACCC (RNA; hairpin with terminal loop)	GATA1 200-319 (Homo sapiens, UniProt P15976)	fluorescence anisotropy	folded RNA			Kd	62 ± 15 nM
AGCGUGCCGUGCAACAACAUUACAAUUUACAAUCCACCAUGG (ssRNA)	ECD 1-644 (Homo sapiens, UniProt O95905)	FP	RNA			Kd	4500 ± 900 nM
GCCCTGACTTTGGGCAGCAATGCTTCAAGTTGGGGCGCTAAAATGGGGCATTGTTTGACGT (dsDNA)	glnG full length assumed	BLI	double-stranded DNA, one strand shown			Kd	41.4 nM
CAATACACTGTTATCGGACACACGTGTCGAGCTACTCGTTCGGTTATCCGGCGGTATGAC (dsDNA)	PHO4	MITOMI	double-stranded DNA, one strand shown	not purified		Kd	139 ± 3 nM
CGCAAAAACAACUAAAUCAAAACCAA (ssRNA; unstructured)	MECP2 1-486 (Homo sapiens, UniProt P51608)	fluorescence polarization	RNA	Hill coefficient 1.03		Kd	39.3 ± 2 nM
CTCAGGAATTCCTAGAAAGTAATGTGGAGCTCAGTTCAAGTCAATCGGTCC (dsDNA; 5'-amino-C6 primer)	SPT15 full length assumed	array	double-stranded DNA, one strand shown	TBP alone		Kd	0.96 ± 0.08 nM
GTAAAGTAGGAACGGTATTAATAGAAATGATACTAAAGTACGAAATAATAAACTGGAATTT (dsDNA)	nac full length assumed	BLI	double-stranded DNA, one strand shown			Kd	6.68 nM
ATTTTTTAGTCCTATATATACTCGCTCTGCACTTGTCAAGTCAATCGGTCC (dsDNA; 5'-amino-C6 primer)	SPT15 full length assumed	array	double-stranded DNA, one strand shown	TBP alone		Kd	35.2 ± 3.05 nM
TTGACAAAATTTGAAAGTTGGAAAAATTTTCCAATAAATAGAGGTAGGAATAAAATGGCAA (dsDNA)	pdhR full length assumed (Escherichia coli, UniProt P0ACL9)	BLI	double-stranded DNA, one strand shown			Kd	190 nM
DNA TGAGGATGTATATATCTGAUGCGCCGGTGGAGC / RNA GCUCCACCGGCGCGUACGAUAUAUACAUCCUCA (DNA:RNA hybrid; blunt, G-U mispair)	TDG 1-410 (Homo sapiens, UniProt Q13569)	EMSA	DNA-RNA hybrid			Kd	63 nM
CGCGGGCACATGGGGACATGGGTACATGGTCACATGGTGACATGGTTACATGTAGCTCCGGCGGTATGAC (dsDNA)	PHO4 full length assumed	MITOMI	double-stranded DNA, one strand shown	not purified		Kd	410 ± 30 nM
DNA 1 CTAATATACACGGATACAAAAGAAATACACATAATTCAATTCAATCGGTCC / DNA 2 GGACCGATTGACTTGAATTATGTGTATTTCTTTTGTATCCGTGTATATTAG (dsDNA; blunt; C:T mismatch; 5'-amino-C6 primer)	SUA7 full length assumed (Saccharomyces cerevisiae, UniProt P29055)	array	double-stranded DNA	TFIIB alone		Kd	2.69 ± 0.9 nM
RNA 1 GCGGUGUAUAGCCUAAUCUUUACCGC / RNA 2 GCGGUAAAGAUUAGGCUAUACACCGC (dsRNA)	PARP1	fluorescence polarization	double-stranded RNA	Hill coefficient 1.24		Kd	388 ± 36 nM
GGTAACTTAGCGTCTCGTTGTGAGTAATTTTGACAAGGAATGGAATGCGATGCGCATAACG (dsDNA)	ulaR full length assumed	BLI	double-stranded DNA, one strand shown			Kd	40.8 nM
CAATACACTGTTATCAGACACACGTGTCGACCTACTCGTTCGGTTATCCGGCGGTATGAC (dsDNA)	CBF1	MITOMI	double-stranded DNA, one strand shown	not purified		Kd	155 ± 7 nM
RNA 1 CGGCAGGACGUACAUCCCUCCCGGCUCCCCUCCCGCUGGCCUGCCG / RNA 2 CGGCAGGCCAGCGGGAGGGGAGCCGGGAGGGAUGUACGUCCUGCCG (dsRNA)	PARP1	fluorescence polarization	double-stranded RNA	Hill coefficient 1.46		Kd	253 ± 19 nM
CCTGCGGTATTGACACTTGAGGGGCGCGACTACTGACAGATGAGGGGCGCGATCCTTGACACTTGAGGGGCAGAGTGATGACAGATGAGGGGCGCACCTATTGACATTTGAGGGGCTGTCCACAGGCAG (dsDNA)	trfA 98-382 G254D/S267L (Escherichia coli, UniProt P07676)	SPR	double-stranded DNA, one strand shown			Kd	2.49 nM

Excerpt of the above:
Sequence	target	test	test system	setting	scale	endpoint	value
TTGACAAAATTTGAAAGTTGGAAAAATTTTCCAATAAATAGAGGTAGGAATAAAATGGCAA (dsDNA)	pdhR full length assumed (Escherichia coli, UniProt P0ACL9)	BLI	double-stranded DNA, one strand shown			Kd	190 nM
AUCAUGUUGCCAUUU (ssRNA)	fbf-1 162-614 (Caenorhabditis elegans, UniProt Q9N5M6)	EMSA	RNA			Kd	615 nM
TTCAATGCTCTGTAGGTGTGCAACAAACCTGGCGTGCACCATGATGATCATTCCATCAGGT (dsDNA)	glnG full length assumed	BLI	double-stranded DNA, one strand shown			Kd	104 nM
CAATACACTGTTATCAGACACACGTGTCTAGCTACTCGTTCGGTTATCCGGCGGTATGAC (dsDNA)	CBF1	MITOMI	double-stranded DNA, one strand shown	not purified		Kd	168 ± 8 nM
ACAUUCAUG (ssRNA)	U2AF2	sequencing of bound RNA	RNA	motif only		Kd	14000 nM
